Experimental data collected from several papers.
Protocols differ between the studies behind these lines. ± marks the error that the study gave.

CCCCC/C=C/C(=O)CCc1ccc(O)c(OC)c1
IC50 (mAb 2-LD2; antibody binding, indirect competitive ELISA; with: coating antigen hapten 1-OVA): 0.0117 µg/mL

Cc1sc2ncn(CC(=O)N3CCCC3)c(=O)c2c1-c1cccc(Br)c1
γ1 conductance level area (NMDA receptor, mouse; single-channel current, outside-out patch; cortical neurons; 50 µM, with: Ca2+ 1.25 mM): 59%

CSc1nn(-c2ccccc2)c(NC(=O)/C(C#N)=C(/Nc2ccc(C)cc2)Nc2c(C)n(C)n(-c3ccccc3)c2=O)c1C#N
selectivity ratio (COX-1 and COX-2, sheep; enzyme activity, inhibitor; baseline: IC50 COX-1 over IC50 COX-2): 181

CC[C@H](C)[C@H](NC(=O)[C@H](Cc1ccccc1)NC(=O)[C@@H](NC(=O)[C@@H](NC(=O)[C@H](CC(C)C)NC(=O)[C@H](CCCCN)NC(=O)[C@@H](N)CCCCN)[C@@H](C)CC)[C@@H](C)O)C(=O)N[C@@H](CC(C)C)C(=O)N[C@@H](CCCCN)C(=O)N[C@@H](CCCCN)C(=O)N[C@H](C(=O)N[C@@H](CCCNC(=N)N)C(=O)N[C@@H](CCC(=O)O)C(=O)N[C@@H](CCCCN)C(=O)N[C@@H](CCCCN)C(=O)N[C@@H](CCCCN)C(=O)N[C@@H](CCC(=O)O)C(=O)N[C@@H](CS)C(=O)N[C@@H](CC(C)C)C(=O)N[C@H](C(=O)O)C(C)C)[C@@H](C)O
rate constant kOB (voltage-gated sodium channel; resurgent sodium current, kinetic model fit; mouse CA3 neurons; 200 µM, membrane potential -30 mV): 62 s⁻¹

O=C(c1ccc(F)cc1)N1CCCC(c2nc(-c3ccncc3)no2)C1 (stereo not drawn)
Emax (mGluR5; calcium fluorescence, positive allosteric modulator; mGluR5-expressing cells; with: glutamate EC20; baseline: maximal glutamate response): 93 ± 5%

CCOCCNC(=O)N1CCC[C@H](c2n[nH]c(-c3ccccc3)n2)C1
Soret peak red shift (recombinant aromatase CYP19; absorption spectroscopy; 100 µM, no androstenedione; baseline: 416 nm): 2 nm

O=C(Nc1ccc(C(F)(F)F)cc1Cl)c1cc(Cl)ccc1O
AR protein level (androgen receptor; Western blot; CWR22Rv1; 1 µM, 16 h): inhibited

Cc1cc(N)c2cc(NC(=O)C(=O)Nc3ccc4nc(C)cc(N)c4c3)ccc2n1
IC50 (factor Xa; anticoagulant neutralization, chromogenic; with: enoxaparin 0.2 IU/mL, human antithrombin III): 8 ± 0.2 µM

CCCCCC(C)NCC(=O)O (stereo not drawn)
hypochromicity (DNA; binding, UV-vis absorption titration; concentration not given): 44.5%

CCNS(=O)(=O)c1ccc(COc2ccc3nc4ccc(=O)cc-4oc3c2)cc1
DDR2 phosphorylation (human DDR2 T654I; HEK293; concentration not given, 4 h, with: collagen I 30 µg/mL): inhibited

COc1c(Cl)c(/C=C(\C)C(=O)O)c(OC)c2ccccc12
reporter activity (NF-κB and HIF1α; luciferase reporter; human cells; up to 100 µM): inactive

CC[C@H](C)[C@H](NC(=O)[C@H](CC(C)C)NC(=O)[C@@H](NC(=O)[C@@H](NC(=O)[C@H](CC(C)C)NC(=O)[C@H](CCCCN)NC(=O)[C@@H](N)CCCCN)[C@@H](C)CC)[C@@H](C)O)C(=O)N[C@@H](Cc1ccccc1)C(=O)N[C@@H](CCCCN)C(=O)N[C@@H](CCCCN)C(=O)N[C@H](C(=O)N[C@@H](CCCNC(=N)N)C(=O)N[C@@H](CCC(=O)O)C(=O)N[C@@H](CCCCN)C(=O)N[C@@H](CCCCN)C(=O)N[C@@H](CCCCN)C(=O)N[C@@H](CCC(=O)O)C(=O)N[C@@H](CS)C(=O)N[C@@H](CC(C)C)C(=O)N[C@H](C(=O)O)C(C)C)[C@@H](C)O
rate constant kIO (voltage-gated sodium channel; resurgent sodium current, kinetic model fit; mouse CA3 neurons; 200 µM, membrane potential -30 mV): 7 s⁻¹

Some of these lines once more:
CCCCCC(C)NCC(=O)O (stereo not drawn)
hypochromicity (DNA; binding, UV-vis absorption titration; concentration not given): 44.5%
